{"data": "Assay results from different studies", "note": "Each numbered part is a random draw from the data of one study; scales do not carry over between parts.", "UniProt P51817, sequence (whole entry, looked up)": "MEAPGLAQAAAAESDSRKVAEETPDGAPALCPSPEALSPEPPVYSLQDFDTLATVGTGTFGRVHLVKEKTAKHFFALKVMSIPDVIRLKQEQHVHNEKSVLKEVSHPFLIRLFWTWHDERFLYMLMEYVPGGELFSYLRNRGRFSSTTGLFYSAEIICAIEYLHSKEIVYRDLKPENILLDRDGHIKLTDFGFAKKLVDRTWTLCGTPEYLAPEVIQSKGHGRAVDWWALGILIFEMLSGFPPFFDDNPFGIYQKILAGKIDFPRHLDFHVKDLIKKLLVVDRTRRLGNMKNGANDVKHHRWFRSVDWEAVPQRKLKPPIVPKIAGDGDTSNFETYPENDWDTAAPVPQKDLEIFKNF", "UniProt Q8NEV4, sequence (whole entry, looked up)": "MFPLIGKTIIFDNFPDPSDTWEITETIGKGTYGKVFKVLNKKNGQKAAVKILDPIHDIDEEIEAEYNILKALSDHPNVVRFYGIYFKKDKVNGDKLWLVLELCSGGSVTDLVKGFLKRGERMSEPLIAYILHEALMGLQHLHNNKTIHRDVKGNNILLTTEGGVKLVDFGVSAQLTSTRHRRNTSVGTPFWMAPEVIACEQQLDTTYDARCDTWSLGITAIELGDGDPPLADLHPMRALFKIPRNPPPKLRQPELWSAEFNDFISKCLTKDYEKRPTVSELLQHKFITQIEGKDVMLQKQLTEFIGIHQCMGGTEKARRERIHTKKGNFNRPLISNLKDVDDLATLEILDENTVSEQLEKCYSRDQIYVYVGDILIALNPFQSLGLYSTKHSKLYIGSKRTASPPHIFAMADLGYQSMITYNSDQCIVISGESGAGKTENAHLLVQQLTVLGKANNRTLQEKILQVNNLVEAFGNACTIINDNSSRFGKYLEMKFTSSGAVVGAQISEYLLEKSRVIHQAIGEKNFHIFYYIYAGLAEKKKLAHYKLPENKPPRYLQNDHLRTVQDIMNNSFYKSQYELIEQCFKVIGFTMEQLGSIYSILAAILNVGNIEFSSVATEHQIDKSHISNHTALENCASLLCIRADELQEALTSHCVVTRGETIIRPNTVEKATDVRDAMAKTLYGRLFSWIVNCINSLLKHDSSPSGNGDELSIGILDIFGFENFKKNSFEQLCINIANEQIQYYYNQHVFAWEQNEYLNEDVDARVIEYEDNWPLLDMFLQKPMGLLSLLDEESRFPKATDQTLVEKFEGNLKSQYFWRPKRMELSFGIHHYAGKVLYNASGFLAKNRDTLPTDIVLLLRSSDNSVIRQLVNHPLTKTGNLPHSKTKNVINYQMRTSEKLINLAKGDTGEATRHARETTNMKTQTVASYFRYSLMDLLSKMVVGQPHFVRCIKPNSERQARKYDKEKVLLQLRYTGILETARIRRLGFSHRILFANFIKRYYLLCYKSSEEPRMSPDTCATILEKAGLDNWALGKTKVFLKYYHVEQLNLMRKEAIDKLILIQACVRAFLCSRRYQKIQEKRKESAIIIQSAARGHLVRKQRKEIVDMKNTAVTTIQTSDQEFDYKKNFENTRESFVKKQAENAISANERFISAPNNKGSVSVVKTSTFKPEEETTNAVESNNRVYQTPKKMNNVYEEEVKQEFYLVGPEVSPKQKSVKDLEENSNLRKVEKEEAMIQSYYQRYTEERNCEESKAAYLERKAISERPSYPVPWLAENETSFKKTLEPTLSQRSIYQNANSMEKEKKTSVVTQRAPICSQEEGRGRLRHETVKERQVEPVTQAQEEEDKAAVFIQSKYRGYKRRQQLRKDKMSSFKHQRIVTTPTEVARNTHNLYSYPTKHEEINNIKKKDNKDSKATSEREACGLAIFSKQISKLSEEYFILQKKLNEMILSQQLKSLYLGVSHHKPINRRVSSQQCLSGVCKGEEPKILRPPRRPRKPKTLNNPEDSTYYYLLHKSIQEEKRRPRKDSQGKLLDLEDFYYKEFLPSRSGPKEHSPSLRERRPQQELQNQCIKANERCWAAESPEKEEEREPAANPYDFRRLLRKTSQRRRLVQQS", "UniProt P29323, sequence (whole entry, looked up)": "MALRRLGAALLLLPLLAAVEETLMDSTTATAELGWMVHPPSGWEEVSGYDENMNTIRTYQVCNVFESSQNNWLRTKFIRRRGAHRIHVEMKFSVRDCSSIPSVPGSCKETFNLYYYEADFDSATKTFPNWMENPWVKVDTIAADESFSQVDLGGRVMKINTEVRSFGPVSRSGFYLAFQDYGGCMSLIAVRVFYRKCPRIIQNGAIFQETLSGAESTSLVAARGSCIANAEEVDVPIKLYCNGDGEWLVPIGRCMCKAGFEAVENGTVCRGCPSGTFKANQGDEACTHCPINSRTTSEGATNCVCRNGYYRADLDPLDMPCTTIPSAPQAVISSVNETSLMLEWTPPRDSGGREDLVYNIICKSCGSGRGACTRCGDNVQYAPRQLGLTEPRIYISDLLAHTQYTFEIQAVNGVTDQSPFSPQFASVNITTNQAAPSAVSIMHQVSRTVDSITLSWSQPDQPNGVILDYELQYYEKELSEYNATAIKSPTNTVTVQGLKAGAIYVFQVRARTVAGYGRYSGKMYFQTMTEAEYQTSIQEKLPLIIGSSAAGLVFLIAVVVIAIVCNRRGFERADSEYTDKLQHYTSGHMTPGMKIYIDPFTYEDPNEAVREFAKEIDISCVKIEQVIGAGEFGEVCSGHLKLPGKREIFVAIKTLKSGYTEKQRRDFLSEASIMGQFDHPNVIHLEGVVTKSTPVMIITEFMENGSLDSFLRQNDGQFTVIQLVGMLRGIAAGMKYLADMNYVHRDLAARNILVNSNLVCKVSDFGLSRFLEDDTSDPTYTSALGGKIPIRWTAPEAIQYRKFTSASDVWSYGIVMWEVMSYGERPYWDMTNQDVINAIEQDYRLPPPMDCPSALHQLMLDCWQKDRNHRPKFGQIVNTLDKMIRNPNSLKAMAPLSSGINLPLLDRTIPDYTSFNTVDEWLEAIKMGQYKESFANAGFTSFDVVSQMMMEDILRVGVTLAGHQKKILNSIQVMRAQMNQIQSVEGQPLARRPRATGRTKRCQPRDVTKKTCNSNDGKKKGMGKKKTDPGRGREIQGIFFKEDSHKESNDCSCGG", "UniProt O94921, sequence (whole entry, looked up)": "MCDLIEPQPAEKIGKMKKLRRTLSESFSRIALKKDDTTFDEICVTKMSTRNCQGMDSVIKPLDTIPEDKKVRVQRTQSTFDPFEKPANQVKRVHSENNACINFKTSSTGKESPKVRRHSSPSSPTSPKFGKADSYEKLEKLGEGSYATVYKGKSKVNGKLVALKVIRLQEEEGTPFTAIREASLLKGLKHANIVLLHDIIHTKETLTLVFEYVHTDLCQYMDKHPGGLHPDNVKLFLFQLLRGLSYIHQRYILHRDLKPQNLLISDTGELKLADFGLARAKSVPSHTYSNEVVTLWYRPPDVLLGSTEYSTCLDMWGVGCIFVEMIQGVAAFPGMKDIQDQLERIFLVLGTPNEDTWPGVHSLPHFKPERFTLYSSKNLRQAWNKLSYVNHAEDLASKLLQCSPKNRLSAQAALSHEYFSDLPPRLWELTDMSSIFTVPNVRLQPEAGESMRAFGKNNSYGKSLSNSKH", "UniProt Q16513, sequence (whole entry, looked up)": "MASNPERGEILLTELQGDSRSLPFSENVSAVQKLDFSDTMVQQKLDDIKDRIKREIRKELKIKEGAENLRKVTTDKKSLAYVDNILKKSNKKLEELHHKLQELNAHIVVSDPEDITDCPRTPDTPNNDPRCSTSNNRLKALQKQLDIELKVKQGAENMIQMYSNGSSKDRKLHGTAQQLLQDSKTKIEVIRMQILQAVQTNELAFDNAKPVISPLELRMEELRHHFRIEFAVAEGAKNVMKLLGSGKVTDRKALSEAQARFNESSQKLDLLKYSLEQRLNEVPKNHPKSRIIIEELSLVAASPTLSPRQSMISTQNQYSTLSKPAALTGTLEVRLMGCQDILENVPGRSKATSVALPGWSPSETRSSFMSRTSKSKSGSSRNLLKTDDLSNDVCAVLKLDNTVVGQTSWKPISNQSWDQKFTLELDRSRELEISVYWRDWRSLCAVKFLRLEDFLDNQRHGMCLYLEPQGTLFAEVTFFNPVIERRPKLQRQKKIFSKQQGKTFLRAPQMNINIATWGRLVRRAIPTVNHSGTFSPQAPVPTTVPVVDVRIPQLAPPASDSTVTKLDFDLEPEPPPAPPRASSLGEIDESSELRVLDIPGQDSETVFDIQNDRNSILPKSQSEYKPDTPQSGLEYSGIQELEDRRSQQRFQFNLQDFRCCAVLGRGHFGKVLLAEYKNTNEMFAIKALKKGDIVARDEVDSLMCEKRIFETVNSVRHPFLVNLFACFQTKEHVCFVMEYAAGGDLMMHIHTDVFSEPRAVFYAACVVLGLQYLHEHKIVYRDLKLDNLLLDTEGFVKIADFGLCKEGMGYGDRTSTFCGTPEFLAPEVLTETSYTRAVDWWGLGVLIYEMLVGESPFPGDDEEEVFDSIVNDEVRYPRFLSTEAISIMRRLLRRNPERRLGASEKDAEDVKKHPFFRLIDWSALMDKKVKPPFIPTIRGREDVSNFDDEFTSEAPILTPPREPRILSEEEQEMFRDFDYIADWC"}
{"data": "Sample 1", "target": "Beta-1 adrenergic receptor (ADRB1, Homo sapiens, UniProt P08588)", "action": "agonist", "UniProt P08588, sequence (whole entry, looked up)": "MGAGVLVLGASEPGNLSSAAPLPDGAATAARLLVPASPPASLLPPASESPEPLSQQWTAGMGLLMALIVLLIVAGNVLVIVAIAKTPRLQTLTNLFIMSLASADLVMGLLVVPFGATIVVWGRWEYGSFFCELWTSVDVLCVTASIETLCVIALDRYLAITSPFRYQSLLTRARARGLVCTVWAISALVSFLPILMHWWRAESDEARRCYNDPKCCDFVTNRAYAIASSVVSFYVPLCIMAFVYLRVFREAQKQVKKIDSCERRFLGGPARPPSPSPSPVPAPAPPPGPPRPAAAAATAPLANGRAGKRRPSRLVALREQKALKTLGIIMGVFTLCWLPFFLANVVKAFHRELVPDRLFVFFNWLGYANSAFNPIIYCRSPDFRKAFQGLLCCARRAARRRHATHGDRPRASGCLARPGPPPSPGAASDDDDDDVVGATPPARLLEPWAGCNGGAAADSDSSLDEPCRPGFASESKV"}
{"SMILES": "CN(c1ccccc1)c1cc(=O)c2ccnc(NC3CCOCC3)c2o1", "EC50 [µM]": "≥ 100"}
{"SMILES": "COc1ccccc1N1CCN([S+](=O)([O-])c2ccc(OC(F)(F)F)cc2)CC1", "EC50 [µM]": "≥ 100"}
{"SMILES": "Cn1cc(C(=O)N2CCn3nc(C(O)CO)cc3C2)c(=O)[nH]c1=O (stereo not drawn)", "EC50 [µM]": "≥ 100"}
{"SMILES": "Cn1c(=O)c2c(nc(N3CCNCC3)n2Cc2ccccc2)n(C)c1=O", "EC50 [µM]": "≥ 100"}
{"SMILES": "COc1cc(-c2cc(-c3cccs3)nc3c(C)noc23)ccn1", "EC50 [µM]": "≥ 100"}
{"SMILES": "COc1ccccc1N1CCN(C(=O)c2ccc(C)s2)CC1", "EC50 [µM]": "≥ 100"}
{"data": "Sample 2", "cell line": "HaCaT", "tested at": "100 µM", "time": "18 h"}
{"SMILES": "Nc1ncnc2c1ncn2[C@@H]1O[C@H](COP(=O)(O)O)[C@@H](O)[C@H]1O", "viability": "108%"}
{"SMILES": "N[C@@H](Cc1cc(I)c(Oc2cc(I)c(O)c(I)c2)c(I)c1)C(=O)O", "viability": "93.1%"}
{"SMILES": "NC(N)=Nc1nc(CSCCC(N)=NS(N)(=O)=O)cs1", "viability": "111%"}
{"SMILES": "Cc1c(O)c(=O)n(-c2ccccc2)n1C", "viability": "112%"}
{"SMILES": "CCN(CC)C(=O)Nc1ccc(OCC(O)CNC(C)(C)C)c(C(C)=O)c1 (stereo not drawn)", "viability": "97.2%"}
{"SMILES": "N#C[C@@H]1CCCN1C(=O)CNC12CC3CC(CC(O)(C3)C1)C2", "viability": "99.1%"}
{"SMILES": "CC#CCn1c(N2CCC[C@@H](N)C2)nc2c1c(=O)n(Cc1nc(C)c3ccccc3n1)c(=O)n2C", "viability": "58.9%"}
{"SMILES": "CC1(C)O[C@@H]2C[C@H]3[C@@H]4C[C@H](F)C5=CC(=O)C=C[C@]5(C)[C@H]4[C@@H](O)C[C@]3(C)[C@]2(C(=O)CO)O1", "viability": "98.5%"}
{"SMILES": "CC(C)(C)c1nc(-c2cccc(NS(=O)(=O)c3c(F)cccc3F)c2F)c(-c2ccnc(N)n2)s1", "viability": "75.3%"}
{"SMILES": "COc1ccnc(C[S+]([O-])c2nc3ccc(OC(F)F)cc3[nH]2)c1OC (stereo not drawn)", "viability": "95.3%"}
{"SMILES": "CCCC(=O)OCOC(=O)C1=C(C)NC(C)=C(C(=O)OC)C1c1cccc(Cl)c1Cl (stereo not drawn)", "viability": "32.8%"}
{"SMILES": "O=C(CCCCCCNC(=O)c1cnc(N(c2ccccc2)c2ccccc2)nc1)NO", "viability": "77.5%"}
{"SMILES": "CC(=O)Nc1ccc(O)cc1", "viability": "108%"}
{"SMILES": "CN(C)[C@@H]1C(O)=C(C(N)=O)C(=O)[C@@]2(O)C(O)=C3C(=O)c4c(O)cccc4[C@@](C)(O)[C@H]3C[C@@H]12", "viability": "107%"}
{"SMILES": "NS(=O)(=O)Cc1noc2ccccc12", "viability": "96.4%"}
{"data": "Sample 3", "Compound": "C[C@H](NC(=O)c1cnc2n1[C@](C)(Cc1ccc(C#N)cc1)C(=O)N2c1cc(Cl)c(F)c(Cl)c1)C(=O)NC1(c2ccccn2)CC1", "method": "competition with immobilised ligand", "tested at": "1 µM"}
{"target": "ROCK2 (Homo sapiens, UniProt O75116)", "assay": "cell-free assay", "remaining binding": "100%"}
{"target": "EPHB2 (Homo sapiens, UniProt P29323)", "assay": "cell-free assay", "remaining binding": "100%"}
{"target": "EGFR (Homo sapiens, UniProt P00533, del747-752/P753S)", "assay": "cell-free assay", "remaining binding": "82%"}
{"target": "WNK4 (Homo sapiens, UniProt Q96J92)", "assay": "cell-free assay", "remaining binding": "100%"}
{"target": "CDK14 (Homo sapiens, UniProt O94921)", "assay": "cell-free assay", "remaining binding": "100%"}
{"target": "FLT3 (Homo sapiens, UniProt P36888, ITD)", "assay": "cell-free assay", "remaining binding": "100%"}
{"target": "PRKX (Homo sapiens, UniProt P51817)", "assay": "cell-free assay", "remaining binding": "100%"}
{"target": "PDGFRB (Homo sapiens, UniProt P09619)", "assay": "cell-free assay", "remaining binding": "91%"}
{"target": "PKN2 (Homo sapiens, UniProt Q16513)", "assay": "cell-free assay", "remaining binding": "63%"}
{"target": "Myosin-IIIa (MYO3A, Homo sapiens, UniProt Q8NEV4)", "assay": "binding", "remaining binding": "100%"}
{"target": "CDK15 (Homo sapiens, UniProt Q96Q40)", "assay": "cell-free assay", "remaining binding": "100%"}
{"data": "Other studies, line by line"}
{"Structure (SMILES)": "CC(C)n1cnc(-c2ccc(F)cc2)c1-c1ncc(C(=O)Nc2ccc(N3CCN(C)CC3)cc2)[nH]1", "test system": "human, idiopathic pulmonary fibrosis", "setting": "60 mg once daily, trial, treatment-emergent", "measurement": "patients with Bronchitis", "value": "0%"}
{"note": "For quick reference, copied from above (sample 3):"}
{"target": "CDK15 (Homo sapiens, UniProt Q96Q40)", "assay": "cell-free assay", "remaining binding": "100%"}
{"target": "EGFR (Homo sapiens, UniProt P00533, del747-752/P753S)", "assay": "cell-free assay", "remaining binding": "82%"}
{"target": "PKN2 (Homo sapiens, UniProt Q16513)", "assay": "cell-free assay", "remaining binding": "63%"}
{"target": "PRKX (Homo sapiens, UniProt P51817)", "assay": "cell-free assay", "remaining binding": "100%"}
{"target": "CDK14 (Homo sapiens, UniProt O94921)", "assay": "cell-free assay", "remaining binding": "100%"}
